Measured values pooled from the literature.
Lines come from different studies, so protocols differ. “And” joins repeats or separate records; there may be more than shown.
Target: Protein kinase C zeta type (PRKCZ, Homo sapiens, UniProt Q05513)

Cc1cccc(-c2ccc3nc(NC(=O)C4CCOCC4)nn3c2)c1  remaining activity (enzyme activity, Dundee kinase panel; 10 µM): 87%
C=CC(=O)Nc1cccc(-c2cnc3[nH]cc(C(=O)NC(C)(C)C)c3n2)c1  inhibition (enzyme activity, inhibitor; 0.1 µM): -9%
C=CC(=O)N1Cc2nc(-c3cc(-c4cc(Cl)cnc4Cl)c(F)cc3F)n(-c3ccncn3)c2C1  inhibition (cell-free assay; 1 µM): 6.2%
COCC12C(=O)NC3C4(C(OC)CC1O)C1CC5(O)C(OC)C(O)C(OC(C)=O)(C1C5OC(=O)c1ccccc1)C3(O)C(OC)C24 (centres unmarked)  remaining activity (kinase activity, inhibitor, ProQinase kinase profiling; 25 µM; reference: control): 81% and 83%
CCn1cc(C(=O)O)c(=O)c2c(N)c(F)c(NC3CCCCC3)cc21  inhibition (kinase activity; 0.1 µM, with: ATP at Km): 1.5%
Cc1nc2c(F)cc(-c3nc(Nc4ccc(CNC(=O)CCCCCCC(=O)NO)cc4)ncc3F)cc2n1C(C)C  inhibition (enzyme activity, inhibitor; 1 µM): 13%
CNC(=O)C[C@H](Cc1ccc(C#N)cc1)NC(=O)c1cc(-c2ccc(CN[C@H](C)c3ccc(C)cc3)o2)ccc1Cl  activity vs control (enzyme activity, inhibitor; 1 µM): 94%
Cc1cccc(-c2ccc3nc(NC(=O)C4CCCO4)nn3c2)c1 (centres unmarked)  remaining activity (enzyme activity, Dundee kinase panel; 10 µM): 88%
NC(=O)[C@@H](O)C[C@H]1CCc2sc3ncnc(O[C@H]4CC[C@H](N5CCOCC5)CC4)c3c21  inhibition (enzyme activity, inhibitor; 10 µM): -2%
Nc1nc(Nc2ccccc2)sc1C(=O)c1ccccc1  remaining activity (enzyme activity, inhibitor; 10 µM): 33%
Cc1cccc(O[C@H]2CCC[C@@H](C(C)CNCc3ccncc3)C2)c1 (relative stereo)  inhibition (enzyme activity; 1 µM): -3%

Repeated from above:
CCn1cc(C(=O)O)c(=O)c2c(N)c(F)c(NC3CCCCC3)cc21  inhibition (kinase activity; 0.1 µM, with: ATP at Km): 1.5%
Cc1nc2c(F)cc(-c3nc(Nc4ccc(CNC(=O)CCCCCCC(=O)NO)cc4)ncc3F)cc2n1C(C)C  inhibition (enzyme activity, inhibitor; 1 µM): 13%
